Measurements collected from several papers.
A part holds a random share of what one study measured. Substitutions count along the parent as printed.
UniProt Q07912, sequence (whole entry, looked up): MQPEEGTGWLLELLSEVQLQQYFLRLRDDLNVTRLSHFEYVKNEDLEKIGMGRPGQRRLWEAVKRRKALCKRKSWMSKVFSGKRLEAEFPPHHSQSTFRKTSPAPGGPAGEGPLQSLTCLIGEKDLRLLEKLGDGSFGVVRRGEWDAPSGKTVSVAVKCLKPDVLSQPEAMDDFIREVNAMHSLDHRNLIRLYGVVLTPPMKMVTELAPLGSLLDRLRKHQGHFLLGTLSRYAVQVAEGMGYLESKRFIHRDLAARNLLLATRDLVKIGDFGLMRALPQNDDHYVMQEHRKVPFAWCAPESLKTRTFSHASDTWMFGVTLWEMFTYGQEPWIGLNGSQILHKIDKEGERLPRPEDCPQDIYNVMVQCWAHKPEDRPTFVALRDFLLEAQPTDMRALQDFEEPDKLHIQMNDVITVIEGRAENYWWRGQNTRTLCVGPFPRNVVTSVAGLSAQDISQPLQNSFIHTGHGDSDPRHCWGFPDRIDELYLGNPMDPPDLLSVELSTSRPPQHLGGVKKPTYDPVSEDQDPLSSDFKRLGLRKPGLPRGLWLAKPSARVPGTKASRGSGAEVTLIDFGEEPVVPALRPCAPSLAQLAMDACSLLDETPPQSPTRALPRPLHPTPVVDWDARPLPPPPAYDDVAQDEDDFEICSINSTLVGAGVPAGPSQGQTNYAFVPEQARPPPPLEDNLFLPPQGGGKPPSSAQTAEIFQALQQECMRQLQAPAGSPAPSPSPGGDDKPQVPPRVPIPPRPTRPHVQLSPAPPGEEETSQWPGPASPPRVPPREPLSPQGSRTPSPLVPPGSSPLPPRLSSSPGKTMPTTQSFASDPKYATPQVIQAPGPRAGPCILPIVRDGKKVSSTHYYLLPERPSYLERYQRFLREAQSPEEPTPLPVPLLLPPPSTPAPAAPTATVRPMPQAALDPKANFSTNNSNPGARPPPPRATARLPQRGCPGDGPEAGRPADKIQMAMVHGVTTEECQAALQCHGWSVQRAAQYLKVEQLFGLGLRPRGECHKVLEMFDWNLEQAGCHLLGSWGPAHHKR
UniProt Q8WTQ7, sequence (whole entry, looked up): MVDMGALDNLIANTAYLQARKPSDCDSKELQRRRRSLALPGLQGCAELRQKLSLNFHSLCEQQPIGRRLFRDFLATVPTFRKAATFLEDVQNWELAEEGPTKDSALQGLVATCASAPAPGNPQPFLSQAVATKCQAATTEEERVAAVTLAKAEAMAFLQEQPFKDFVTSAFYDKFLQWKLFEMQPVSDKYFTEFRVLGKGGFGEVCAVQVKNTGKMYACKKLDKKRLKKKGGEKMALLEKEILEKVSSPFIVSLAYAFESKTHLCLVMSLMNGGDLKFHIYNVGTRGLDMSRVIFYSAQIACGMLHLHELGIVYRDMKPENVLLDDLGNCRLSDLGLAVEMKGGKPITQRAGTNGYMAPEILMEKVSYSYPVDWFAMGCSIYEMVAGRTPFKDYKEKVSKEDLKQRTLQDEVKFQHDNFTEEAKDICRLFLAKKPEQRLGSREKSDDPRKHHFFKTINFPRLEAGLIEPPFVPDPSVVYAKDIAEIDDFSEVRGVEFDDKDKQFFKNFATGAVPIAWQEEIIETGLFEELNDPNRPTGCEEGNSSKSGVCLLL
UniProt Q04912, sequence (whole entry, looked up): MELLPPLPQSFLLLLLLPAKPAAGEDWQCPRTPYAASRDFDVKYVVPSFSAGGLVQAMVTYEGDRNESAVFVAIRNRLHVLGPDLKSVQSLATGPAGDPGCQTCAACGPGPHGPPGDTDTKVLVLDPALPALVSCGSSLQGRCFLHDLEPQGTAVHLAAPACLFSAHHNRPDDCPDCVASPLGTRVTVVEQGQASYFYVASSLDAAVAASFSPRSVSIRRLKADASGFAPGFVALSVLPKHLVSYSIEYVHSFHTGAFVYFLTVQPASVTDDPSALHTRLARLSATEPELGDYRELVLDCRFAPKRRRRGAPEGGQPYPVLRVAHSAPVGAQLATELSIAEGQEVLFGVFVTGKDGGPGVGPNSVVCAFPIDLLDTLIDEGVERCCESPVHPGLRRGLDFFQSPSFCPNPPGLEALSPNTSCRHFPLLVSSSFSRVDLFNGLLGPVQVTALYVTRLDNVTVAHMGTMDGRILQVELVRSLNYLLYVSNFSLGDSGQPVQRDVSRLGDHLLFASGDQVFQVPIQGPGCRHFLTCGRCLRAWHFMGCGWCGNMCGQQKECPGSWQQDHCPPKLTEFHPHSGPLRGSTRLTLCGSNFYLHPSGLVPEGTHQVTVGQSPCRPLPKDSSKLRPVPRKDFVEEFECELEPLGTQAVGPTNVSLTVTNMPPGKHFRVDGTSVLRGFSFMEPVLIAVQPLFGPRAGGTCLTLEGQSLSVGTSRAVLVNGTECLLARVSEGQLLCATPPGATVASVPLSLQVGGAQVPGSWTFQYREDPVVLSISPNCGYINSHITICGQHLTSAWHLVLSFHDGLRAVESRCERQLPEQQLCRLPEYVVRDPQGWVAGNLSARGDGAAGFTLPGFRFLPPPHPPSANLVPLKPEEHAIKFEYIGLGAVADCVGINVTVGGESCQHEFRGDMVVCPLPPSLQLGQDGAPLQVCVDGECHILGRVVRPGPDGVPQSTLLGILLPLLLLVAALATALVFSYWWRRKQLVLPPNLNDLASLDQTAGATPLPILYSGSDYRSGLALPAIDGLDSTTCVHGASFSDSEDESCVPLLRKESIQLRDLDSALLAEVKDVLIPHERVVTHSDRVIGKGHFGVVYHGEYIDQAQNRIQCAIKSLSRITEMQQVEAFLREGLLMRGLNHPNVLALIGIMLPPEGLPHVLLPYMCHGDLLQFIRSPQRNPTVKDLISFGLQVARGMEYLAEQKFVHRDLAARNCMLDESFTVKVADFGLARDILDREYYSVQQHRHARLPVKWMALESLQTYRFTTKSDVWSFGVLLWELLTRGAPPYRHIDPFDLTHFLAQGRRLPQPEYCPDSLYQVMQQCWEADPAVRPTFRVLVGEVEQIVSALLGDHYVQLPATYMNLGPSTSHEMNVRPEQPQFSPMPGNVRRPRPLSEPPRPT
UniProt Q8IYT8, sequence (whole entry, looked up): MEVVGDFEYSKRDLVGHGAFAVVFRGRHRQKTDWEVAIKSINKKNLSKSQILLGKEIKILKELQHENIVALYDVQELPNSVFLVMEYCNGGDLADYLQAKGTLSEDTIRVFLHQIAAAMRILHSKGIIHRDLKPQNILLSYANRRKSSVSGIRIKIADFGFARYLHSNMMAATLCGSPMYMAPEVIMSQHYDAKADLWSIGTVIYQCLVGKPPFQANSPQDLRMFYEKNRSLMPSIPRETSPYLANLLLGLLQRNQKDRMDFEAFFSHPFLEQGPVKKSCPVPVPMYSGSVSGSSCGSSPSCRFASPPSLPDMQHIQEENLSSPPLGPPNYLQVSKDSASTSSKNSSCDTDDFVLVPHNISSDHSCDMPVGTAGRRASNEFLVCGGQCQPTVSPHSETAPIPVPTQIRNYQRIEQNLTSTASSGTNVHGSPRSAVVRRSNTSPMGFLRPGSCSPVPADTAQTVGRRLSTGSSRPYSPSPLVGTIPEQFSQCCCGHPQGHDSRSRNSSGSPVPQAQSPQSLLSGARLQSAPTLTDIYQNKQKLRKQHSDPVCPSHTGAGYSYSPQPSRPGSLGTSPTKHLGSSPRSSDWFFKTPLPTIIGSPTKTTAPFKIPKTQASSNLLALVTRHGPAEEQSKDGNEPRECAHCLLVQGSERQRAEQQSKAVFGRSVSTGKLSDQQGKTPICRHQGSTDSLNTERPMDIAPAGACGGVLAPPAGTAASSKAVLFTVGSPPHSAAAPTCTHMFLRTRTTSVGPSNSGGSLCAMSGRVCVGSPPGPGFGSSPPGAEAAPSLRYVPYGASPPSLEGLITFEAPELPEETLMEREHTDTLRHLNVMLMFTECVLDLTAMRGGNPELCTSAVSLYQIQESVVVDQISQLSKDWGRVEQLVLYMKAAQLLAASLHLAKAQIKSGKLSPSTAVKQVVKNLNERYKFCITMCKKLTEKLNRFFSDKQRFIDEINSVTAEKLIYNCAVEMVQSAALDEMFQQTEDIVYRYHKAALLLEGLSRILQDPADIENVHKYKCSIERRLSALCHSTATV

Block 1 — technique: DHFR PCA, deep sequencing; sample: yeast; together with: (+)-ABA 1.4 µM; reference: wild-type fitted maximum; direction: higher = stronger binding; endpoint: relative binding score
Target: ABI1, truncated, D143A, DHFR fusion (Arabidopsis thaliana)
Setting: methotrexate growth selection, single substitutions
Starting sequence: PYL1, truncated, DHFR fusion (Arabidopsis thaliana); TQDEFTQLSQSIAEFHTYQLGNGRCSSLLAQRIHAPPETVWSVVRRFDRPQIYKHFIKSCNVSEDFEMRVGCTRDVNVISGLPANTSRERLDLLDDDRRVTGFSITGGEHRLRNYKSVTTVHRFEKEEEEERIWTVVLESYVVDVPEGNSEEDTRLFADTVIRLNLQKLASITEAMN; partner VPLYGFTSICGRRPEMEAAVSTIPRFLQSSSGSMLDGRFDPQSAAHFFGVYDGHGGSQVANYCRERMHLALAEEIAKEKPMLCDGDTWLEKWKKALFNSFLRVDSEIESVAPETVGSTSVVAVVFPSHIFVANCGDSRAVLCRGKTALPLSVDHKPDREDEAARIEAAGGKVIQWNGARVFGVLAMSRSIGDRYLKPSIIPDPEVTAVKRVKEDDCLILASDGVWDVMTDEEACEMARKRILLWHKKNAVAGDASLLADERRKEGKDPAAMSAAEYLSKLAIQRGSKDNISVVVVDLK
Change = R111G; result = 3.59%
Change = D144S; result = -12.2%
Change = R46T; result = 6%
Change = V161G; result = -9.87%
Change = T119V; result = 7.88%
Change = T86F; result = 67.5%
Change = G81F; result = -15%
Change = Y53H; result = 20.3%

Block 2 — read-out: cell-free assay; technique: competition with immobilised ligand; concentration: 1 µM; endpoint: remaining binding
SMILES: CCC(=O)N[C@@H]1CC[C@H](C(=O)N(C)c2ccc(-c3nc4ccccc4o3)cc2)C1
target = BRSK2 (Homo sapiens, UniProt Q8IWQ3); result = 76%
target = TNK2 (Homo sapiens, UniProt Q07912); result = 100%
target = MAP2K1 (Homo sapiens, UniProt Q02750); result = 100%
target = CDK11B (Homo sapiens, UniProt P21127); result = 100%

Block 3 — technique: universal PBM; molecule type: double-stranded DNA, one strand shown; sample: in vitro; concentration: 600 nM; direction: higher = stronger binding; endpoint: E-score
Target: Sal-like protein 4, full length isoform A (SALL4, Homo sapiens, UniProt Q9UJQ4, residues 1-1053)
UniProt Q9UJQ4, sequence (whole entry, looked up): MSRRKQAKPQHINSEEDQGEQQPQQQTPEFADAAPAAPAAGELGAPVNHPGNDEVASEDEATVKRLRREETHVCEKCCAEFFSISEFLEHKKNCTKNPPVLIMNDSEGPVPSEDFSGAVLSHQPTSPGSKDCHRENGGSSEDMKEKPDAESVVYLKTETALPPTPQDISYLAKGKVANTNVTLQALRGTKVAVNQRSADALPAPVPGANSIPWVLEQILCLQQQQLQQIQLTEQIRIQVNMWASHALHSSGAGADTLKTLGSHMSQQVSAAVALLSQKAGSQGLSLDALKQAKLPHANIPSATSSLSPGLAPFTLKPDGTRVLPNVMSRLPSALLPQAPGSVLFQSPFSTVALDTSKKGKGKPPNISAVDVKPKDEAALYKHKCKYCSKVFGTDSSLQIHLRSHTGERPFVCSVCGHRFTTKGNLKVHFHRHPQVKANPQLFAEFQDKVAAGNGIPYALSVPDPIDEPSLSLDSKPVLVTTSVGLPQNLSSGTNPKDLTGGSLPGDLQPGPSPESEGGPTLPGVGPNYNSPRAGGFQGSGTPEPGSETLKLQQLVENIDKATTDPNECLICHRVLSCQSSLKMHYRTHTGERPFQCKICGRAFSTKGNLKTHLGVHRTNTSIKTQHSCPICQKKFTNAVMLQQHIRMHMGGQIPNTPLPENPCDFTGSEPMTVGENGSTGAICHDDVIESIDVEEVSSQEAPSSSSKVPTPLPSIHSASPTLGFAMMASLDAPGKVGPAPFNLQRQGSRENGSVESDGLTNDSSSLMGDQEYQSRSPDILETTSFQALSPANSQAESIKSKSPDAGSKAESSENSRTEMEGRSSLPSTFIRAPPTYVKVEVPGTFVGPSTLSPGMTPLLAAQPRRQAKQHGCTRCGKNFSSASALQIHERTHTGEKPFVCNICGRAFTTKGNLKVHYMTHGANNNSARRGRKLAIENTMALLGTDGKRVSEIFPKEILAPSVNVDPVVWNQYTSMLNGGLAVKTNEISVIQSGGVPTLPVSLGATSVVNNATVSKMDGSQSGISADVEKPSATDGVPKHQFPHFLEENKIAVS
Setting: 8-mer, flanks averaged, mean of replicates
Oligonucleotide = CTATGAAC; result = 0.142
Oligonucleotide = CGAATGAA; result = 0.0908
Oligonucleotide = GCCTCGAC; result = -0.184
Oligonucleotide = AGTAGCAA; result = 0.152
Oligonucleotide = CGGGACCC; result = -0.364
Oligonucleotide = AAAAACAT; result = 0.294
Oligonucleotide = CCAGACCA; result = -0.0934
Oligonucleotide = CTCGCGGC; result = -0.348

Block 4 — read-out: enzyme activity; mode: inhibitor; concentration: 0.5 µM; reference: control; endpoint: remaining activity
Compound: Nc1nc(Nc2ccc(S(N)(=O)=O)cc2)nn1C(=O)c1c(F)cccc1F
target = MAPK3 (Homo sapiens, UniProt P27361); result = 108%
target = JAK3 (Homo sapiens, UniProt P52333); result = 8.5%
target = FRK (Homo sapiens, UniProt P42685); result = 90.9%
target = LCK (Homo sapiens, UniProt P06239); result = 87.9%
target = MAP3K5 (Homo sapiens, UniProt Q99683); result = 103%
target = RPS6KA2 (Homo sapiens, UniProt Q15349); result = 42.2%
target = MST1R (Homo sapiens, UniProt Q04912); result = 115%
target = TBK1 (Homo sapiens, UniProt Q9UHD2); result = 80%
target = TAOK2 (Homo sapiens, UniProt Q9UL54); result = 8.93%
target = MAPKAPK2 (Homo sapiens, UniProt P49137); result = 95.8%
target = TEK (Homo sapiens, UniProt Q02763); result = 84.2%
target = NEK1 (Homo sapiens, UniProt Q96PY6); result = 76.3%
target = ACVR1B (Homo sapiens, UniProt P36896); result = 118%
target = MAP3K14 (Homo sapiens, UniProt Q99558); result = 106%
target = ARAF (Homo sapiens, UniProt P10398); result = 93.1%
target = ULK2 (Homo sapiens, UniProt Q8IYT8); result = 102%
target = NEK6 (Homo sapiens, UniProt Q9HC98); result = 102%
target = GRK7 (Homo sapiens, UniProt Q8WTQ7); result = 65.9%
target = MAP2K2 (Homo sapiens, UniProt P36507); result = 85.6%
target = MERTK (Homo sapiens, UniProt Q12866); result = 70.2%

For quick reference, copied from above (block 4):
target = MST1R (Homo sapiens, UniProt Q04912); result = 115%
target = JAK3 (Homo sapiens, UniProt P52333); result = 8.5%
target = TAOK2 (Homo sapiens, UniProt Q9UL54); result = 8.93%
target = NEK1 (Homo sapiens, UniProt Q96PY6); result = 76.3%
target = TBK1 (Homo sapiens, UniProt Q9UHD2); result = 80%
target = ULK2 (Homo sapiens, UniProt Q8IYT8); result = 102%
